# Assay results pooled from the literature.
# A part holds a random share of what one study measured. Substitutions count along the parent as printed.

# Series 1
# Target: CDC34 UBC core domain (UniProt P49427)
# Technique: yeast two-hybrid
# Sample: yeast
# Setting: mostly zero background
# Baseline: not given
# Direction: higher = stronger interaction
# B1: DTX1 RING domain (UniProt Q86Y01); chain QKVKNPPDEDCTICMERLVTASGYEGVLRHKGVRPELVGRLGRCGHMYHLLCLVAMYSNGNKDGSLQCPTCKAIYGEKTGTQ
# B2: TRIM48 RING domain (UniProt Q8IWZ4); chain ISQVFQRELTCPICMNYFIDPVTIDCGHSFCRPCFYLNWQDIPILTQCFECIKTIQQRNLKT
# B3: TRIM22 RING domain (UniProt Q8IYM9); chain KEVKMSPQEGQKRDVCEHHGKKLQIFCKEDGKVICWVCELSQEHQGHQTFRINEVVKECQEK
# B4: PRKN RING domain (UniProt O60260); chain LIATNSRNITCITCTDVRSPVLVFQCNSRHVICLDCFHLYCVTRLNDRQFVHDPQLGYSLPCVAGCPNSLIKELHH
# B5: RNF135 RING domain (UniProt Q8IUD6); chain PVWLAEDDLGCIICQGLLDWPATLPCGHSFCRHCLEALWGARDARRWACPTCRQGAAQQPHLR
# Residues (chain): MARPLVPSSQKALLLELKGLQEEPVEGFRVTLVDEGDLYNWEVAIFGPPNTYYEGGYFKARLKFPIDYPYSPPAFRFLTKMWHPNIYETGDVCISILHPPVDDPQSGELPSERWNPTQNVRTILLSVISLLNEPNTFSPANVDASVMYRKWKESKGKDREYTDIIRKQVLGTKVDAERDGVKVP
Sequence,lacZ reporter activity
B1 (DTX1 RING domain),0
ALDRLEKLLRCSRCTNILREPVCLGGCEHIFCSNCVSDCIGTGCPVCYTPAWIQDLKI (BARD1 RING domain (UniProt Q99728)),0
B2 (TRIM48 RING domain),0
KITELNPHLMCVLCGGYFIDATTIIECLHSFCKTCIVRYLETSKYCPICDVQVHKTRPLL (BMI1 RING domain (UniProt P35226)),0
B3 (TRIM22 RING domain),0
B4 (PRKN RING domain),0
B5 (RNF135 RING domain),0

# Series 2
# Target: Histone acetyltransferase KAT6A, both winged helices, GST fusion (KAT6A, Homo sapiens, UniProt Q92794, residues 1-181)
# Technique: protein binding microarray
# Form: double-stranded DNA, one strand shown
# Sample: in vitro
# Tested at: not given
# Setting: 8-mer, flanks averaged, mean of 2 arrays, mostly near background
# Baseline: not given
# Direction: higher = stronger binding
# Residues (chain): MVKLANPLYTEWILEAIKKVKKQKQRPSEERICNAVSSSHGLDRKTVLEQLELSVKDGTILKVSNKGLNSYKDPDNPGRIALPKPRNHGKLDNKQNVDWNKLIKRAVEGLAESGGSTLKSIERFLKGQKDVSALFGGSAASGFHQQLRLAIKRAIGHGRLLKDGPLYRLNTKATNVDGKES
Strand,E-score
CGGGTGAC,0.243
ATGCTTAA,-0.00291
ACTTCGCA,-0.0177
GCTTGTAA,0.0312
ATGTGAGC,-0.0725
AAGAGATT,0.0107
TAAAGGTA,-0.0803
ACATCTCA,-0.00328
AACAGAGG,-0.216
CAGTACGC,0.0558
AGCGATCA,0.102
ACGATGAC,0.00246
CAGACGCG,0.275
TCACGGCA,0.301
AAGCCAAA,-0.0987
CGATAATC,0.075
CAGGTACC,-0.0931

# Series 3
# Target: Phosphate system positive regulatory protein PHO4, full length, GST-tagged (PHO4, Saccharomyces cerevisiae, UniProt P07270, residues 1-312)
# Technique: competition protein-binding microarray
# Form: double-stranded DNA, one strand shown
# Sample: in vitro
# Tested at: 2 µM
# Setting: whole 60-bp probe, lowest competitor level
# With: Cbf1 competitor, 0.05 µM
# Direction: higher = stronger binding
# Construct (chain): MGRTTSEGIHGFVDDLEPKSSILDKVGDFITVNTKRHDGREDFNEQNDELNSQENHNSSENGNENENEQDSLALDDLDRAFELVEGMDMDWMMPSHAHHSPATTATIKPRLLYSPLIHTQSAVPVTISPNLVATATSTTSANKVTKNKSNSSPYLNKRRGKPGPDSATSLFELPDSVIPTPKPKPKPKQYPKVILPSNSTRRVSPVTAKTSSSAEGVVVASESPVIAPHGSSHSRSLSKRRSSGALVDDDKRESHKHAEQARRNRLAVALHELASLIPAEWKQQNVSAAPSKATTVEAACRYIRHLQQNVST
Strand,fluorescence intensity [a.u.]
TACAGCTGCCATTTGACCGTGCAATACAGCAAATTAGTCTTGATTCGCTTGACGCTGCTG,5070
CTTTCCCGATCTTGCTCCGTGGGTGTAGCACATTTGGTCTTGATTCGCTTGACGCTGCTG,6860
TTCACTAGGCAAATCCACGTGCTTTAGCATTTCCATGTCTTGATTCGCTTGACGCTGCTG,18500
CGGGGTTAAGTTTTTCACGTGACATGCTTGCAGCAGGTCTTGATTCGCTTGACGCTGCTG,9890
TTCCAAATCCTTCTCCTCGTGGACCCCTTGGGCGATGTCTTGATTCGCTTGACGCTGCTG,10300
GTCTTGTCTCATTTTCACGTGGAGTTCCCCACTTCAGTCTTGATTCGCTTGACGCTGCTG,11800
TGTGTTCTAGGCTTGAACGTGCCAGCAGCATATCGAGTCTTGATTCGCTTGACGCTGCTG,11900
CGTCCTAGCGATTGAATTGTGGGTGCCATGAGGAAGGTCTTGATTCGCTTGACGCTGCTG,7080
TCCGAATACTGTATTAACAACGTAGAAGAACTGATGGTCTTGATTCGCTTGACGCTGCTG,4230
TCGAACAACCTTCCCAACGTGAAGAAGCTAAGAAAGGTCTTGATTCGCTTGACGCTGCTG,7150
ATGGTTAGAAAAAGAAACGTGCAATCGCCCGTCTGGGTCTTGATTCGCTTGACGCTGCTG,13100
TGCTAGAGCTCGTTCCACGTGGTTACACATCCGCCAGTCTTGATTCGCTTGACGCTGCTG,15700
CGTTATTTACTTCCACACGTGCTTTAAATGATGTGAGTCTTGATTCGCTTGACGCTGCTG,19000

# Series 4
# Target: CCNF, cyclin fold, Cln2 fusion (human)
# Technique: yeast growth competition, sequencing
# Sample: yeast
# Setting: weak parent motif
# Baseline: not given
# Direction: higher = stronger binding
# Starting sequence: FZR1 docking peptide (human); QDYERRLLRQIVI
Change,normalised enrichment score
I11A,1.56
Y3A,0.906
R5K,0.261
Q10A,0.534
E4A,2.07
R5A,0.606
V12A,1.37

# Series 5
# Target: ABI1, truncated, D143A, DHFR fusion (Arabidopsis thaliana)
# Technique: DHFR PCA, deep sequencing
# Sample: yeast
# Setting: methotrexate growth selection, single substitutions
# With: (+)-ABA 0.032 µM
# Baseline: wild-type fitted maximum
# Direction: higher = stronger binding
# Starting sequence: PYL1, truncated, DHFR fusion (Arabidopsis thaliana); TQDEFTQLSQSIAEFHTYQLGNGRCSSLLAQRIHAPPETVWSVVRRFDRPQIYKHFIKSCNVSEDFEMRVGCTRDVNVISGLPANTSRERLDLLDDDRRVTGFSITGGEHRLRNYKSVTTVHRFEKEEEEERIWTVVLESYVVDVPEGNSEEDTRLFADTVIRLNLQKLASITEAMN
Change,relative binding score [%]
A84S,36.2
G23K,9.88
E128P,12.1
S27P,0.952
Y53V,8.01
I12W,7.79
E152S,8.8
S150M,11.6
G71D,-3.99
V40Q,1.21
V136L,16
R32A,18.6
T73L,8.7
I33E,-0.412
A170C,5
E131I,20.9
F103V,0.358
I105W,-4.6
L166G,3.05

# Series 6
# Target: JUND, bZIP domain (human)
# Technique: DHFR protein complementation
# Sample: yeast
# Setting: single substitutions, most at no-binding floor
# Baseline: wild-type JUN-FOS pair
# Direction: higher = stronger binding
# Starting sequence: JUN, bZIP domain (human); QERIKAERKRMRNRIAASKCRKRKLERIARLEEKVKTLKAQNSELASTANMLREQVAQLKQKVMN; partner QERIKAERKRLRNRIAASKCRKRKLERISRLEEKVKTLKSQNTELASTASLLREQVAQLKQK
Change,binding fitness [natural log]
E33Q,-0.846
Q55I,-1.16
E33T,-1.08
E32C,-1.2
K39R,-0.628
T37C,-0.633
E44C,-1.16
A49Y,-0.927
E54T,-0.863
T48E,-0.455
N42G,-1.16
A57L,-1.07
E54M,-0.947
S47V,-0.504
T48K,-0.933
K39N,-0.817
Q58T,-0.506
E44N,-1.02
I28L,-0.91
S47T,-0.612
R30H,-0.532

# Further values, each from its own experiment
# Technique: two-hybrid
# Baseline: out of 4 tests
# Direction: higher = firmer interaction
# T1: itself; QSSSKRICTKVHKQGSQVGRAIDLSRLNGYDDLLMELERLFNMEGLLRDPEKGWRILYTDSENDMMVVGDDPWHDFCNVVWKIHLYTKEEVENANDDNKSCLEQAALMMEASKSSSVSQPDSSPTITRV
# T2: itself; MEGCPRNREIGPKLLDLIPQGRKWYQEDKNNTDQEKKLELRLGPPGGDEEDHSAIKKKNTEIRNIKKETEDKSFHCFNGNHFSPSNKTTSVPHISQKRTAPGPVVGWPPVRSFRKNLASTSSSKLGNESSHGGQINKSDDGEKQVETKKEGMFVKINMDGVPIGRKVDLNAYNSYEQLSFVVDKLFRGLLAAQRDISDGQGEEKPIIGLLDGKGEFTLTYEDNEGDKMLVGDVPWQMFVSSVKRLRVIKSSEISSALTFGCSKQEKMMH
# T3: itself; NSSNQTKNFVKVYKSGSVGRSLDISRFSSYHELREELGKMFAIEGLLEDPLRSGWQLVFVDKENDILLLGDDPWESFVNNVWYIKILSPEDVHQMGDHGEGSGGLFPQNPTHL
# T4: itself; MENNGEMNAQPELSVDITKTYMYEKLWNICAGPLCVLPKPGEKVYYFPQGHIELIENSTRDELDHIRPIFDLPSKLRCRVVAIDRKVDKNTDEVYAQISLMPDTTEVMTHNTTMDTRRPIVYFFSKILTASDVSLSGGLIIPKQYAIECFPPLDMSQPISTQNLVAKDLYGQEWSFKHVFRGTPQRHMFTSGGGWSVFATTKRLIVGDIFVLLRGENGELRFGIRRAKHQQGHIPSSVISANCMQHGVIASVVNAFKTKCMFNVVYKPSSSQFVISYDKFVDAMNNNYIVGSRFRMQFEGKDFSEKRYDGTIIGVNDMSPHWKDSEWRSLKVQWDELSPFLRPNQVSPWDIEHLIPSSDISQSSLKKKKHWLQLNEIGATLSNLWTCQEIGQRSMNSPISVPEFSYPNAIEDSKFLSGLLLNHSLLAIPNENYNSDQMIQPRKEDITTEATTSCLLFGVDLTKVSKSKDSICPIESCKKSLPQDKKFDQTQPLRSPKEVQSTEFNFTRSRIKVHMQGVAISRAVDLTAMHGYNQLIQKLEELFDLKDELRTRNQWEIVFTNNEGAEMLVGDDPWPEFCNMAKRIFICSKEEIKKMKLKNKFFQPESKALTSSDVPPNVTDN
# B6: ARF4 660-788 (Arabidopsis thaliana, UniProt Q9ZTX9); chain QSSSKRICTKVHKQGSQVGRAIDLSRLNGYDDLLMELERLFNMEGLLRDPEKGWRILYTDSENDMMVVGDDPWHDFCNVVWKIHLYTKEEVENANDDNKSCLEQAALMMEASKSSSVSQPDSSPTITRV
# B7: ARF8 699-811 (Arabidopsis thaliana, UniProt Q9FGV1); chain NSSNQTKNFVKVYKSGSVGRSLDISRFSSYHELREELGKMFAIEGLLEDPLRSGWQLVFVDKENDILLLGDDPWESFVNNVWYIKILSPEDVHQMGDHGEGSGGLFPQNPTHL
Molecule,partner,positive tests
B6 (ARF4 660-788),"T1, itself",0
"IAA26 (Arabidopsis thaliana, UniProt Q8LAL2)","T2, itself",0
B7 (ARF8 699-811),"T3, itself",0
"ARF13 (Arabidopsis thaliana, UniProt Q9FX25)","T4, itself",0

# A few entries again (series 5):
Change,relative binding score [%]
A84S,36.2
G23K,9.88
E128P,12.1
S27P,0.952
Y53V,8.01
I12W,7.79
E152S,8.8
S150M,11.6
